Measurements gathered from unrelated publications.
± marks the error that the study gave.

| Structure (SMILES) | target or system | assay | system | conditions | scale | endpoint | result |
| --- | --- | --- | --- | --- | --- | --- | --- |
| CCN(Cc1ccccc1)C(=O)CCc1nc(CN2CCN(C(=O)Cc3ccc(OC)c(OC)c3)CC2)no1 | – | current clamp | L4-L6 DRG neurons, rat CCI model | 10 µM | – | rheobase | 443 ± 36.9 pA |
| CN[C@](C)(C[18F])C(=O)O | DU-145 tumour model | – | host not given, bone | 30 min, tumour-bearing | – | tracer uptake | 2.2 %ID/g |
| NCC12C3CCC4C3C3C(CCC31)C42 | Influenza A virus | viral replication, inhibitor | H3N2 | – | – | EC50 | > 100 µM |
| COC[C@@H](NC(C)=O)C(=O)NCc1ccc(N=[N+]=[N-])cc1 | voltage-gated sodium channel | sodium current, whole-cell patch clamp | CAD | 40 µM, 5 min washout, test potential -10 mV, added: UV irradiation | reference: pre-drug current | current recovery | 79% |
| N=C(N)Nc1ccc(-c2nc3ccc(-c4ccc5nc(-c6ccc(NC(=N)N)cc6)[nH]c5c4)cc3[nH]2)cc1 | – | – | FVB mouse, wild type | intraperitoneal, 40 mg/kg, 7 days | – | Clcn1 exon 7 splicing | no effect |
| C1CCN(CC23C4CCC5C4C4C(CCC42)C53)CC1 | Influenza A virus | viral replication | MDCK, H1N1 A/PR/8/34 | – | – | EC50 | > 100 µM |
| Oc1ccc(Nc2ccnc3cc(Cl)ccc23)cc1 | Dengue virus 2 | viral replication, plaque | BHK-21 | – | – | EC90 | 31.2 ± 5.15 µM |
| CC(C)CC(C(=O)N1CC2(CC1C#N)C(=O)Nc1ccccc12)N(C)C(=O)c1cc2c(F)cc(F)c(F)c2[nH]1 (stereo not drawn) | other human protease families | inhibitor | – | – | – | IC50 | > 100 µM |
| CCCCCc1cc(OC(=O)C(NC(=O)CCC(=O)O)C(C)C)c2c(c1)OC(C)(C)C1CCC(C)=CC21 (stereo not drawn) | – | – | rabbit, α-chymotrypsin-induced glaucoma | concentration not given, 1 h | reference: baseline | intraocular pressure | 64% |
| CCCCCCCCC(=O)NCc1ccc(O)c(OC)c1 | mouse mAb 1-F12 | antibody binding, indirect competitive ELISA | – | added: coating antigen 1-OVA | – | IC50 | 0.252 µg/mL |
| Cc1ccccc1N1C(=O)/C(=C/c2ccc(OCc3cccc(C(=O)O)c3)cc2)C(=O)NC1=S | LYP (PTPN22), human | NFAT-AP1 reporter gene, inhibitor | Jurkat TAg | 5 µM, added: anti-CD3 (OKT3) | reference: untreated cells | T cell activation threshold shift | ~0.5 log units anti-CD3 |
| CC[C@H](C)[C@H](NC(=O)[C@@H](NC(=O)[C@H](CC(=O)O)NC(C)=O)[C@@H](C)O)C(=O)N[C@@H](CCCNC(=N)N)C(=O)N[C@@H](CC(C)C)C(=O)N[C@@H](CC(C)C)C(=O)N[C@@H](Cc1ccccc1)C(=O)N[C@@H](CCC(N)=O)C(=O)N[C@@H](CC(C)C)C(=O)N[C@@H](CCSC)C(=O)N[C@@H](CCCNC(=N)N)C(=O)N1CCC[C@H]1C(=O)N1CCC[C@H]1C(=O)N[C@@H](CC(N)=O)C(=O)N[C@@H](CCSC)C(=O)N[C@H](C(=O)N1CCC[C@H]1C(=O)N[C@@H](C)C(=O)N[C@H](C(=O)N[C@@H](CC(N)=O)C(=O)N[C@@H](C)C(N)=O)C(C)C)[C@@H](C)O | – | item: HA-29 tetramer | antigen-experienced tetramer+ CD4 T cells, healthy adults, HLA-DRB1*0101 | dose not given | – | α4β7+ CCR9− cells | 57.1% |

For quick reference, copied from above:
| Structure (SMILES) | target or system | assay | system | conditions | scale | endpoint | result |
| --- | --- | --- | --- | --- | --- | --- | --- |
| C1CCN(CC23C4CCC5C4C4C(CCC42)C53)CC1 | Influenza A virus | viral replication | MDCK, H1N1 A/PR/8/34 | – | – | EC50 | > 100 µM |
